Measurements of several laboratories.
Every numbered part comes from another study and shows a few of its results, in no order. Substitutions count along the parent as printed.

Series 1
Target: ABI1, truncated, D143A, DHFR fusion (Arabidopsis thaliana)
Method: DHFR PCA, deep sequencing
Sample: yeast
Notes: methotrexate growth selection, single substitutions
Together with: (+)-ABA 0.032 µM
Relative to: wild-type fitted maximum
Reading: higher = stronger binding
Parent: PYL1, truncated, DHFR fusion (Arabidopsis thaliana); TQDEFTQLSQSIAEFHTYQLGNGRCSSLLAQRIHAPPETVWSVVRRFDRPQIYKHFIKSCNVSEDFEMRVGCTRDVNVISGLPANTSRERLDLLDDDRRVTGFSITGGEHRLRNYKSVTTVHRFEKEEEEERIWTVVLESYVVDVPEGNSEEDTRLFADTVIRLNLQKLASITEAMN
Substitution | relative binding score [%]
F5K | -0.93
D92E | 0.467
R24E | 5.06
R163V | 4.92
R90I | -2.39
R99P | 29
N165D | 12.5
D97L | 4.54
S117R | -3.81
I172Q | -3.76
L93S | 0.306
G23T | 0.94
N22Q | 42
E4D | 19.2
Q167L | 16.5
W41C | 0.401
V145K | -4.11

Series 2
Target: RNA binding protein fox-1 homolog 2, RRM domain, GST-SBP tag (RBFOX2, Homo sapiens, UniProt O43251-10, residues 100-194)
Method: RNA Bind-n-Seq
Form: RNA
Sample: in vitro
Concentration: 365 nM
Notes: natural RNA segment, single round, ends assumed
Relative to: no-protein control
Reading: higher = stronger binding
Constant ends, left off below: GGGAGUUCUACAGUCCGACGAUC … UGGAAUUCUCGGGUGCCAA
Target sequence (chain): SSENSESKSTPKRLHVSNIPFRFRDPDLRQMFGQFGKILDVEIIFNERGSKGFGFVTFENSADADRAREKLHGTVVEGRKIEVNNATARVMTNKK
Strand | RBNS enrichment (R)
ACUGGGAGCUGGGGCAUUUCCAUCUCCUGGUGGCCAUCCCUGGUCAGGGUGUGAGUGAGCUCUGCUACUCCCCACCCAGUGCCUGAGGAGCCUGUCAGGUUUUGAGAGCU | 0.283
GUUAUCUUCAGAAAAUAUUAUUUGACCUACAGUAUGUCCAAAUCAAUUUAAUAAAAUCGCUUUAUAACAGGGUUCUGUGCUUGACAUGUAGUUGUGUGAAUUCAGUGGUC | 5.58
UCUGAACCUGCUCCUUUCUUAACUGCCAGGAUUGGAAGCAAGAGCAUCAAGCCCAUAGGAUGACUGCGCAAUCCUGUUCAGUAUUGUGAAGUAGCCCUUAAUCCUAACUU | 0.475
UCCUUUCUAGGAAUGCUGAUUCAGAGUGCACCUCUUUGACUAGGUCCCAGGAUCCCCUUGUCCCUGGAGUAGGGACUAACUAUAGCACAAAGUAAUAUGUGCCAAUGCUA | 0.63
ACUUGACCAUCGGUGGCCAUUUUCCAAGCCAGUCUGGUCAAGACUCAUGGCUGAACCUCUGAGACUGAGCCUUGGGGAGCACAGCUCUACUCUGGUUACACGGAUCACCU | 0.183
GGAAUAUUGGGGAAUAGAAGGGAUUGAGGAAACAUUAAUAAUAGUUAUUCAAAAGACCCAAAUGCUUAUACUUCUCUCUCCCUUCUUCUCUCUCUGACACACACACACAC | 0.815
CCUUGCCUGCAGUGGGAGAGUUGCCCAGUGGUUCCCCAUCCCCCAUUAUAUUCUAAUGCUAAAUCACUUGGCAAGAGUGUAUUUUAAUGAUGCCUAAUUUCUCUAUGUUC | 1.14
CUCUUCUGGGACUGCUGUGAGGCAGAGGAAUGAUGGAGAAUCUAGUGUAGCAGCCUCCAGGCAGGAUUCAGCACAACACUGGGGAGUCACCCUUCCCUCGGGCCUCUGCC | 0.286
GGACAGCUGCAGCCUGGCUAGGCCACUGACCCCACAGUCCAUAUAAGCUGACCAUGCAGCUCGCUGCUGGCCCCCAGUAAGCACCCCUUCCCACCGUCCACUCCCCGUCC | 0.367
AGCCGAAAAUUAAACCCCACCUCCAUCAAACACAGUUUUUAUAGAUUCUGACUUUUUUAAAAAUUCUUUUCUAAUUAUUGUAAAAAGUAUAUUAUAUCUUAAGUCAGUUU | 0.92
CUUGAUCUGUGAGUCACUCUCCAGUUUGGGACAUGGGUCUGUCUGUGGCUUUGAGAAAAGGUACUUUCAAAAGAGGGCUUUCCAGAGCACAGCUCACAGCCAGCUGUUAG | 0.201
UACUCUUGCAACAUAACUACCAUCUCUCUCUUAAAACGAGAUCAGGUUAGCAAAUGAUGUAAAAGAAGCUUUAUUGUCUAGUUGUUUUUUUUCCCCCAAGACAAAGGCAA | 0.312

Series 3
Target: PABPC1L2, full length, GST fusion (mouse, UniProt A0ABA7IW68)
Method: RNAcompete
Form: RNA
Sample: in vitro
Concentration: 20 nM
Notes: 7-mer, probes averaged, single round
Relative to: mean of 7-mers
Reading: higher = stronger binding
Construct (chain): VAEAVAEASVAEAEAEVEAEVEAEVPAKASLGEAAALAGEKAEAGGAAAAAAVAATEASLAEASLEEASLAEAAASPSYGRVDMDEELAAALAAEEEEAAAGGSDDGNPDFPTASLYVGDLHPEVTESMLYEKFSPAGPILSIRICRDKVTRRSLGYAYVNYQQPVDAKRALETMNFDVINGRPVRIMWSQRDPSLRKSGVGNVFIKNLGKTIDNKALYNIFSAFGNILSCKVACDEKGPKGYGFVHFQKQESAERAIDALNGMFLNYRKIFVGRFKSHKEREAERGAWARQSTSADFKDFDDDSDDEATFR
Strand | 7-mer Z-score
AAGCCCG | -0.0899
UUCUAAC | -0.449
CACUCCG | -0.291
UUCUCAG | -0.369
CGGUUGC | -0.364
CUUAUCG | -0.282
GAGUCCA | -0.141
GUCCGAC | -0.211
CCGUUUA | -0.325
ACAGAAG | 0.144
UUGUCAU | -0.382
AAUAGCU | -0.0355
AGGGUGC | 0.405
AUACAAA | 1.72
CGCGCUU | -0.255
CCUCAUU | -0.253
UGACAUG | -0.0446

Series 4
Target: CCNB2, cyclin fold, Cln2 fusion (human)
Method: yeast growth competition, sequencing
Sample: yeast
Notes: weak parent motif
Relative to: not given
Reading: higher = stronger binding
Parent: RB1 docking peptide (human); PKPLKKLRFDIEG; partner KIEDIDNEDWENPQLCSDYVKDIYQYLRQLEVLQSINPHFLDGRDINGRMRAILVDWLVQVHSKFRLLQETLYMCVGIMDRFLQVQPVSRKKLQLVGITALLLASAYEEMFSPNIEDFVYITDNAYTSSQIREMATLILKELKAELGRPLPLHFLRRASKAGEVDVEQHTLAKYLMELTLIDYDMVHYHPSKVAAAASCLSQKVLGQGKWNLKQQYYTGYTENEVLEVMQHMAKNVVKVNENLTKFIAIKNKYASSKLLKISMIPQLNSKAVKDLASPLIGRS
Substitution | normalised enrichment score
P1K | 0.958
P3N | 0.14
L7I | 0.702
I11E | 0.366
L4T | 0.231
L4G | 0.683
G13N | 0.0804
G13H | 0.728
K5R | 0.0779
R8P | 0.00758
F9N | 0.877
E12Q | 0.134
I11Q | -0.248
P1N | 0.0423
K5D | -0.0558
P1H | 0.613
L7N | -0.167
P3C | 1.59
E12Y | 0.604
E12M | 0.495
I11W | 0.257

Series 5
Target: UBE2E1 UBC core domain (UniProt P51965)
UniProt P51965, sequence (whole entry, looked up): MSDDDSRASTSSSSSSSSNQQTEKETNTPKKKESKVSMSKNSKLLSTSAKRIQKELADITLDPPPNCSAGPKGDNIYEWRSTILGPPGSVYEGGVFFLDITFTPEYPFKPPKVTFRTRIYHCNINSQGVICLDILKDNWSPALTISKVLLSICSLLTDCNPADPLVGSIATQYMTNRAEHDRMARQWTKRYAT
Method: yeast two-hybrid
Sample: yeast
Notes: mostly zero background
Relative to: not given
Reading: higher = stronger interaction
B1: TRIM63 RING domain (UniProt Q969Q1); chain PMENLEKQLICPICLEMFTKPVVILPCQHNLCRKCANDIFQAANPYWTSRGSSVSMSGGRFRCPTCRHEVIMDRHGV
B2: TRIM8 RING domain (UniProt Q9BZR9); chain WKNCFEEELICPICLHVFVEPVQLPCKHNFCRGCIGEAWAKDSGLVRCPECNQAYNQKPGLE
B3: RC3H2 RING domain (UniProt Q9HBD1); chain QAAQWTEFLSCPICYNEFDENVHKPISLGCSHTVCKTCLNKLHRKACPFDQTAINTDIDVL
B4: MID1 RING domain (UniProt O15344); chain METLESELTCPICLELFEDPLLLPCAHSLCFNCAHRILVSHCATNESVESITAFQCPTCRHVITLSQRGL
B5: TRIM69 RING domain (UniProt Q86WT6); chain VIQDITMELHCPLCNDWFRDPLMLSCGHNFCEACIQDFWRLQAKETFCPECKMLCQYNNCTF
Sequence | lacZ reporter activity
PEELQAMDNVCIICREEMVTGAKRLPCNHIFHTSCLRSWFQRQQTCPTCRMDVLRASLPA (SYVN1 RING domain (UniProt Q86TM6)) | 0
YWAMDSTFELCKICAESNKDVKIEPCGHLLCSCCLAAWQHSDSQTCPFCRCEIKGWEAVS (CBLC RING domain (UniProt Q9ULV8)) | 0
B1 (TRIM63 RING domain) | 0
DAIPSLSECQCGICMEILVEPVTLPCNHTLCKPCFQSTVEKASLCCPFCRRRVSSWTRYH (RNF168 RING domain (UniProt Q8IYW5)) | 0
B2 (TRIM8 RING domain) | 0
QHHELTSLFECPVCFDYVLPPILQCQAGHLVCNQCRQKLSCCPTCRGALTPSIRNL (SIAH2 RING domain (UniProt O43255)) | 0
B3 (RC3H2 RING domain) | 0
EDEVSDNSAECVVCLSDVRDTLILPCRHLCLCNTCADTLRYQANNCPICRLPFRALLQIR (RNF157 RING domain (UniProt Q96PX1)) | 0
B4 (MID1 RING domain) | 0
B5 (TRIM69 RING domain) | 0

Series 6
Target: Prothrombin, mature alpha-thrombin (F2, Homo sapiens, UniProt P00734)
Method: aptamer microarray, sandwich
Form: DNA with 2'F-ANA
Sample: in vitro
Concentration: 200 nM
Notes: whole 15-mer aptamer, many near background
Together with: Cy3 exosite-II aptamer, 400 nM
Reading: higher = stronger binding
Strand: GGTTGGTGTGGTTGG
Modification | mean fluorescence intensity [a.u.]
2'F-ANA at 1 4 7 8 9 10 12 13 14 | 51.3
2'F-ANA at 1 2 6 8 10 12 14 | 46.8
2'F-ANA at 1 5 8 9 11 12 13 15 | 73.7
2'F-ANA at 1 7 9 11 12 13 | 250
2'F-ANA at 2 7 9 13 | 372
2'F-ANA at 8 9 11 13 | 490
2'F-ANA at 4 6 8 9 12 13 14 | 98.8
2'F-ANA at 2 3 6 10 11 14 | 274
2'F-ANA at 4 5 7 9 10 11 12 15 | 49.2
2'F-ANA at 1 8 10 13 | 54.1
2'F-ANA at 1 2 3 4 6 8 14 15 | 64.7
2'F-ANA at 1 3 5 7 8 10 13 | 48.7
2'F-ANA at 2 3 6 7 8 14 | 514
2'F-ANA at 1 2 3 4 6 7 9 10 12 13 14 | 52
2'F-ANA at 1 2 4 5 6 8 9 10 11 14 15 | 83.2
2'F-ANA at 1 3 4 5 6 8 10 15 | 80.1
2'F-ANA at 3 4 5 6 7 9 12 13 | 106
2'F-ANA at 3 6 7 11 12 | 1180
2'F-ANA at 1 2 5 6 7 10 12 15 | 52.9
2'F-ANA at 2 4 7 13 15 | 234
2'F-ANA at 2 5 7 8 11 13 14 15 | 56
